Published values of several laboratories.
Each numbered part is a random draw from the data of one study; scales do not carry over between parts.
Chain of UniProt P45974 (whole entry, looked up): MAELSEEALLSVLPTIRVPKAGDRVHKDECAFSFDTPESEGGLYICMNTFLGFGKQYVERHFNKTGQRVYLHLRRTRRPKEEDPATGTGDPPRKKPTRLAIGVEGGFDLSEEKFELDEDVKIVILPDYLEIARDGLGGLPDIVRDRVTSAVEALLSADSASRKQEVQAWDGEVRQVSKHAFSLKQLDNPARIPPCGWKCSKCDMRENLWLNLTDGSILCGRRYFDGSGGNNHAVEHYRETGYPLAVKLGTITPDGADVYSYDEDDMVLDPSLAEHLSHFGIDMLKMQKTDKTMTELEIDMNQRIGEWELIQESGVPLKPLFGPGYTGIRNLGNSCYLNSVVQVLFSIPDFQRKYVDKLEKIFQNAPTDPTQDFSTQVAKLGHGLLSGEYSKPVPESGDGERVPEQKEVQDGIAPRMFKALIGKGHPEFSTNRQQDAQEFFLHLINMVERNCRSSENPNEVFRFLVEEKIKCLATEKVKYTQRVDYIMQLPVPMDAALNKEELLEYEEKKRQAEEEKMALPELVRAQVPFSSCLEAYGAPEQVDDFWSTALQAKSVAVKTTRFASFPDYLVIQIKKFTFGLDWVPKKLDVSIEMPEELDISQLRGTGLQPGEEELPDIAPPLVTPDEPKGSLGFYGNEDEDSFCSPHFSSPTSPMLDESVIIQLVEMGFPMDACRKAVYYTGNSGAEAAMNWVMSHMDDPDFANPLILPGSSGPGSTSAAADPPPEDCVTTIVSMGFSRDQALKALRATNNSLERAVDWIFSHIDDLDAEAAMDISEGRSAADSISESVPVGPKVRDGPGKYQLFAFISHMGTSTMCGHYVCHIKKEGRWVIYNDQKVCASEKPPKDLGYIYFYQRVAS
Chain of UniProt P40818 (whole entry, looked up): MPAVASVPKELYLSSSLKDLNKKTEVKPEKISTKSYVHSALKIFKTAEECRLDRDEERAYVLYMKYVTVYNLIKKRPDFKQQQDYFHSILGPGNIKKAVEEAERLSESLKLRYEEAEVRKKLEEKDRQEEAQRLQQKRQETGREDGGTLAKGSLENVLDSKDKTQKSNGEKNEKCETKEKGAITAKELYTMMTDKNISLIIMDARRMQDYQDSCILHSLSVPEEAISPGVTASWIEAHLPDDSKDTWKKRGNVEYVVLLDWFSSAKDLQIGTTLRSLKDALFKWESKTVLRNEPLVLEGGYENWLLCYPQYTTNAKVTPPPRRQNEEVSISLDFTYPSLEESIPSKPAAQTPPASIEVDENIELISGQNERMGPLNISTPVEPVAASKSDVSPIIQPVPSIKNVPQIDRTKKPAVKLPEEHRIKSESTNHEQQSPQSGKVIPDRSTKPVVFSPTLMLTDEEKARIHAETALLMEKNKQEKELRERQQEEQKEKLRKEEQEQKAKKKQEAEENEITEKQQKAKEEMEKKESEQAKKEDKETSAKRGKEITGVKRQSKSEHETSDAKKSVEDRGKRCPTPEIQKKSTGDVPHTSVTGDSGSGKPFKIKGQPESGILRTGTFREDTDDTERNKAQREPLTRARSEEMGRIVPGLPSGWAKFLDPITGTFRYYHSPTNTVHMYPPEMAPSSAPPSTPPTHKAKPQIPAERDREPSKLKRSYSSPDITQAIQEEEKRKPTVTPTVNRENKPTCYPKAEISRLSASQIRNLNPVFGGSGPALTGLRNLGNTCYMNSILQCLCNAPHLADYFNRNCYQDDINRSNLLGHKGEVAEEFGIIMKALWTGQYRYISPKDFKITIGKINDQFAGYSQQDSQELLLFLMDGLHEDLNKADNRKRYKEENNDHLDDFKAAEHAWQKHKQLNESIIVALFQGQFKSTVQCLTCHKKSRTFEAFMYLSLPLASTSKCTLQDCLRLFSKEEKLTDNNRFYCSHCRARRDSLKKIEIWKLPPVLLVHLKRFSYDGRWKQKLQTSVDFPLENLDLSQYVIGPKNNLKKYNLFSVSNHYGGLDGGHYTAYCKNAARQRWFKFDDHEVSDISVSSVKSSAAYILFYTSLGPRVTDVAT
Chain of UniProt Q93009 (whole entry, looked up): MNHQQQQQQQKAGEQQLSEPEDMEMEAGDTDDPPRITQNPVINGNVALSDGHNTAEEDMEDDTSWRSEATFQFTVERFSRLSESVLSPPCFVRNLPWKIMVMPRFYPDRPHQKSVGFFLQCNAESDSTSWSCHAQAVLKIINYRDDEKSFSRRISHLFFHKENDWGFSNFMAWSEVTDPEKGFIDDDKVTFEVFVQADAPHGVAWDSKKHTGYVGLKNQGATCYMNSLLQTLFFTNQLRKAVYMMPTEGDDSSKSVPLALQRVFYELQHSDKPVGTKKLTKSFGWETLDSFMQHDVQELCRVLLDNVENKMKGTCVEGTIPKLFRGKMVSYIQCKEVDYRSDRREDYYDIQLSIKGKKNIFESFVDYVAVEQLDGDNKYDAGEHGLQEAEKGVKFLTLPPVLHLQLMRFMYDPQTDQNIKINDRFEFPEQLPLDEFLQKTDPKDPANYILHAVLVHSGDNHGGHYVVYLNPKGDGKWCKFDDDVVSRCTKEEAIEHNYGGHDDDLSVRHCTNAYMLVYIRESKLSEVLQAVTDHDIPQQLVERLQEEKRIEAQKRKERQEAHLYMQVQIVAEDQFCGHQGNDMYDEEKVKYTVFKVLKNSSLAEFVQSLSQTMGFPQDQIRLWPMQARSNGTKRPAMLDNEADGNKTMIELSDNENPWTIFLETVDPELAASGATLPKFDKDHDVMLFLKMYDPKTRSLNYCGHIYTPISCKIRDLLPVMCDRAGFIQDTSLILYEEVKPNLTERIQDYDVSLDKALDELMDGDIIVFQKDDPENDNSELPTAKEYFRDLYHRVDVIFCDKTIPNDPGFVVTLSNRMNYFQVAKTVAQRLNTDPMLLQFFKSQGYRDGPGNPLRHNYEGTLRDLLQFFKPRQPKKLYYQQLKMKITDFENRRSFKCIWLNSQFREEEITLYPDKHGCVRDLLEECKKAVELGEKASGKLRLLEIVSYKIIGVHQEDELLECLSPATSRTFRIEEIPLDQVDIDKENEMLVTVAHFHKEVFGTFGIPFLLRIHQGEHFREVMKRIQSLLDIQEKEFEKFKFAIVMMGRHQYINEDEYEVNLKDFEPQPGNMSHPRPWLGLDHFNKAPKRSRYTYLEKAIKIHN
Chain of UniProt P21580 (whole entry, looked up): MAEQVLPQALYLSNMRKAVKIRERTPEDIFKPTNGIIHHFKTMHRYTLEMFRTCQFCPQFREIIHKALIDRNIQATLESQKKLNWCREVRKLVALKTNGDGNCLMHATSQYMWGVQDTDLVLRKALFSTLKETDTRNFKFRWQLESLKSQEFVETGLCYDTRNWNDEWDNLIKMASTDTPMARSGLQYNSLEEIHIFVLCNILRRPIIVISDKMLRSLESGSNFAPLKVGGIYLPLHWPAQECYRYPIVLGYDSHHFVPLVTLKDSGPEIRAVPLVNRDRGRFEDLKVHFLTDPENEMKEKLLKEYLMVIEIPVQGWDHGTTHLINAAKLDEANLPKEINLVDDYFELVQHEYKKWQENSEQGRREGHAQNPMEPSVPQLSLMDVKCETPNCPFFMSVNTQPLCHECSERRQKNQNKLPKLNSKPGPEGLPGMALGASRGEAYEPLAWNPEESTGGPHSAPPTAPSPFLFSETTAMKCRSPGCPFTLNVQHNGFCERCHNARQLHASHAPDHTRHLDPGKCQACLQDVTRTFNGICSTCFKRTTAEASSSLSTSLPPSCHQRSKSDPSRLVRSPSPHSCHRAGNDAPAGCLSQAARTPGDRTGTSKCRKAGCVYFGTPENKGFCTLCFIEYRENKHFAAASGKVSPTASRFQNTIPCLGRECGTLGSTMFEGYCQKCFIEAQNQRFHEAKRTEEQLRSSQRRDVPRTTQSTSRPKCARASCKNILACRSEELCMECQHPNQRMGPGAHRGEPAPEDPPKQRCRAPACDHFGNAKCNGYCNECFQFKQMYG

Study 1
Target: UBE2D4 UBC core domain (UniProt Q9Y2X8)
Technique: yeast two-hybrid
Sample: yeast
Notes: mostly zero background
Relative to: not given
Reading: higher = stronger interaction
B1: RNF170 RING domain (UniProt Q96K19); chain TRQQFYTDMYCPICLHQASFPVETNCGHLFCGACIIAYWRYGSWLGAISCPICRQTVTLLLTVF
B2: MID1 RING domain (UniProt O15344); chain METLESELTCPICLELFEDPLLLPCAHSLCFNCAHRILVSHCATNESVESITAFQCPTCRHVITLSQRGL
B3: TRIM8 RING domain (UniProt Q9BZR9); chain WKNCFEEELICPICLHVFVEPVQLPCKHNFCRGCIGEAWAKDSGLVRCPECNQAYNQKPGLE
B4: TRIM63 RING domain (UniProt Q969Q1); chain PMENLEKQLICPICLEMFTKPVVILPCQHNLCRKCANDIFQAANPYWTSRGSSVSMSGGRFRCPTCRHEVIMDRHGV
B5: RC3H2 RING domain (UniProt Q9HBD1); chain QAAQWTEFLSCPICYNEFDENVHKPISLGCSHTVCKTCLNKLHRKACPFDQTAINTDIDVL
Construct (chain): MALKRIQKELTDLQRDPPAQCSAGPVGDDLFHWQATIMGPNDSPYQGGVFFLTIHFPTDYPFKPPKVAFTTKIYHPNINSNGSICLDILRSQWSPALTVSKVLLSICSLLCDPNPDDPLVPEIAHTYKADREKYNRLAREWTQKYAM
For `FPEHFVKSISCQICEHILADPVETNCKHVFCRVCILRCLKVMGSYCPSCRYPCFPTDLES (RAG1 RING domain (UniProt P15918))`, “lacZ reporter activity” read 0.
`B1 (RNF170 RING domain)` — result for “lacZ reporter activity”: 0.
For `B2 (MID1 RING domain)`, “lacZ reporter activity” read 0.
`B3 (TRIM8 RING domain)` — result for “lacZ reporter activity”: 0.
`QLQDIKEQTMCPVCLDRLKNMIFLCGHGTCQLCGDRMSECPICRKAIERRILLY (MIB1 RING domain (UniProt Q86YT6))` — result for “lacZ reporter activity”: 11700.
Under “lacZ reporter activity”, `EDEVSDNSAECVVCLSDVRDTLILPCRHLCLCNTCADTLRYQANNCPICRLPFRALLQIR (RNF157 RING domain (UniProt Q96PX1))` is recorded as 0.
Under “lacZ reporter activity”, `RLTMMWEEVTCPICLDPFVEPVSIECGHSFCQECISQVGKGGGSVCPVCRQRFLLKNLRP (TRIM21 RING domain (UniProt P19474))` is recorded as 0.
For `FASPPDSNFVCSVCHGVLKRPARLPCSHIFCKKCILRWLARQKTCPCCRKEVKRKKVVH (RNF151 RING domain (UniProt Q2KHN1))`, “lacZ reporter activity” read 0.
Under “lacZ reporter activity”, `B4 (TRIM63 RING domain)` is recorded as 0.
`B5 (RC3H2 RING domain)` — result for “lacZ reporter activity”: 0.

Study 2
Target: HLA class I histocompatibility antigen, A alpha chain, allele A*26:03 (Homo sapiens, UniProt P04439)
Effect on: peptide-MHC binding
Molecule type: peptide
Concentration: concentration not given
For `RGRGVAIHR`, binding read “inactive”.
Under binding, `KRLLLKLDF` is recorded as “inactive”.
`CFMYSDFHF`: binding “inactive”.
`FQYEHEQTF`: binding “inactive”.
`WENGFKVVL` — result for binding: “inactive”.
`SHEGEGIPL`: binding “inactive”.
Under binding, `IHLDKGGQF` is recorded as “inactive”.
`RSLYNTVAVLY` — result for binding: “inactive”.
Under binding, `LEHGLYPQL` is recorded as “inactive”.
`LLLLISLVY` — result for binding: “inactive”.

Study 3
Substance: ubiquitin aldehyde
Effect on: enzyme activity
The inhibition was 56% (USP7 (Homo sapiens, UniProt Q93009); 0.01 µM).
TNFAIP3 (Homo sapiens, UniProt P21580); 0.1 µM — inhibition: 96%.
It gave 11% for inhibition (USP8 (Homo sapiens, UniProt P40818); 0.01 µM).
It gave 2% for inhibition (USP5 (Homo sapiens, UniProt P45974); 0.01 µM).

Other studies, line by line
Under interaction screen, `H2BC11 (Homo sapiens, UniProt P06899)` is recorded as “cross-linked” (H2AC12 (Homo sapiens, UniProt Q96KK5); cross-linking MS; hits only).

Repeated from above (other studies, line by line):
Under interaction screen, `H2BC11 (Homo sapiens, UniProt P06899)` is recorded as “cross-linked” (H2AC12 (Homo sapiens, UniProt Q96KK5); cross-linking MS; hits only).
